Experimental data collected from several papers.
Each numbered part is a random draw from the data of one study; scales do not carry over between parts. “And” joins repeats or separate records; there may be more than shown.
Sequence of UniProt Q8TDR2 (whole entry, looked up): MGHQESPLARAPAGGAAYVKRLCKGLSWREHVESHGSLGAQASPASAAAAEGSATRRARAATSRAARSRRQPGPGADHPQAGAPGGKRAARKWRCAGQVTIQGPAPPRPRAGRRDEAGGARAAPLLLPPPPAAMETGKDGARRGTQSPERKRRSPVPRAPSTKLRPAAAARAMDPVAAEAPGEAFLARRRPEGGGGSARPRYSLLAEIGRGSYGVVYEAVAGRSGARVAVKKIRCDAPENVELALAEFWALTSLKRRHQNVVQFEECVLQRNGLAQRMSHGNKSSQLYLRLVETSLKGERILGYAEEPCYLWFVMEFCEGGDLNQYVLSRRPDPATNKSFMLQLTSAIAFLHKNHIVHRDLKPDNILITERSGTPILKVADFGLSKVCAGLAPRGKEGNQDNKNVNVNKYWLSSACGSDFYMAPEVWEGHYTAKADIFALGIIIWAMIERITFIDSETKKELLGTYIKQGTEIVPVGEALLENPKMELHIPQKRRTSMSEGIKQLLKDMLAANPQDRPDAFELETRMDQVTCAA
Sequence of UniProt Q14164 (whole entry, looked up): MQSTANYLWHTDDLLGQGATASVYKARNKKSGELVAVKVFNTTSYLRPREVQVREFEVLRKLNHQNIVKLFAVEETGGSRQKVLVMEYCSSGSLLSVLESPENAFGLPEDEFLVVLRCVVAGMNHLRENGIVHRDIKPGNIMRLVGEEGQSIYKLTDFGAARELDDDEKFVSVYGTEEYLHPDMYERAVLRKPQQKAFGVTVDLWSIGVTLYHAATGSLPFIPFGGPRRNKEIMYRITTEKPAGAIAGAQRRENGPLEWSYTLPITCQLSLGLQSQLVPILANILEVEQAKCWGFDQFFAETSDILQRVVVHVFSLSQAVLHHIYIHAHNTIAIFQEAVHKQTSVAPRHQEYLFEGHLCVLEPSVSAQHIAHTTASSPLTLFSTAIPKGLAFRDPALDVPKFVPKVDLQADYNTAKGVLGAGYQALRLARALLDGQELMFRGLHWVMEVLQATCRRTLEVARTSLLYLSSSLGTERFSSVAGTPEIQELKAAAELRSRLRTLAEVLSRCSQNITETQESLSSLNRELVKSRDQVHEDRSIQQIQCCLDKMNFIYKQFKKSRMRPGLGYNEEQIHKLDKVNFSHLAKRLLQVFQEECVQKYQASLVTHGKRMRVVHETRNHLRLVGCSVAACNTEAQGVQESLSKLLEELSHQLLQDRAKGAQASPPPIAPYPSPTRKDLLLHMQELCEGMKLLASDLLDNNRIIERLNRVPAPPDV
Sequence of UniProt P41743 (whole entry, looked up): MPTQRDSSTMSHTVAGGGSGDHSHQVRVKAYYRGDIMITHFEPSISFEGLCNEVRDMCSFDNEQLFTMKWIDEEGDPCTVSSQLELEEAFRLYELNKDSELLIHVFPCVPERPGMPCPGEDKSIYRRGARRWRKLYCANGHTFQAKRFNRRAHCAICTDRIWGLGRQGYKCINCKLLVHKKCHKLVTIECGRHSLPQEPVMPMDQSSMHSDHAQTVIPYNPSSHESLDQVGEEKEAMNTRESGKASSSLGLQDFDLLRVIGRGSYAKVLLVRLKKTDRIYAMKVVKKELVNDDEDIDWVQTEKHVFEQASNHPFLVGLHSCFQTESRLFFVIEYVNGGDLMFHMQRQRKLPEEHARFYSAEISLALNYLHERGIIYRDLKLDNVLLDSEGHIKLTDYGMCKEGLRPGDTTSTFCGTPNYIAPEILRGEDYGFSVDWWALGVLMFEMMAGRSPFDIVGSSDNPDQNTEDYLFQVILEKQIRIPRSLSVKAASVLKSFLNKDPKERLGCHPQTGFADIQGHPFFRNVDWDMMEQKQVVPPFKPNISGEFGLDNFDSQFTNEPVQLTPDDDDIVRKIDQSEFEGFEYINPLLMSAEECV
Sequence of UniProt P49760 (whole entry, looked up): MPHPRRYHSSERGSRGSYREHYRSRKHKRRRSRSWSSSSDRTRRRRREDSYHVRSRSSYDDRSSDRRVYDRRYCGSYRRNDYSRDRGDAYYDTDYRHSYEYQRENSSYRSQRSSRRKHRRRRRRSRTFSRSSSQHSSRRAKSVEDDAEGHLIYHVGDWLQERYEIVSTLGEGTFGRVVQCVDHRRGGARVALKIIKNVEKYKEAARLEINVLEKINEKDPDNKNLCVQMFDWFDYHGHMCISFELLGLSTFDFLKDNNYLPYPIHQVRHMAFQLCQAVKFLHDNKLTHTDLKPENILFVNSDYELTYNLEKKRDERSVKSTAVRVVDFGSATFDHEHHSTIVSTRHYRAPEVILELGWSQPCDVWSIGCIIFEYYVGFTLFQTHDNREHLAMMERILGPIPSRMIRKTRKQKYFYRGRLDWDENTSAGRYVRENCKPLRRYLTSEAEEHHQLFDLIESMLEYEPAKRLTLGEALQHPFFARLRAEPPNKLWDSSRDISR

Series 1 — effect on: enzyme activity; action: inhibitor; concentration: 1 µM
Compound: CO[C@@H]1[C@H](N(C)C(=O)c2ccccc2)C[C@H]2O[C@]1(C)n1c3ccccc3c3c4c(c5c6ccccc6n2c5c31)C(=O)NC4
| target | inhibition [%] |
| --- | --- |
| Hepatocyte growth factor receptor (MET, Homo sapiens, UniProt P08581) | 61 |
| Mitogen-activated protein kinase kinase kinase 10 (MAP3K10, Homo sapiens, UniProt Q02779) | 82 |
| SRSF protein kinase 2 (SRPK2, Homo sapiens, UniProt P78362) | 1 |
| Inhibitor of nuclear factor kappa-B kinase subunit alpha (CHUK, Homo sapiens, UniProt O15111) | 0 |
| Interferon-induced, double-stranded RNA-activated protein kinase (EIF2AK2, Homo sapiens, UniProt P19525) | 0 |
| Mitogen-activated protein kinase kinase kinase 20 (MAP3K20, Homo sapiens, UniProt Q9NYL2) | 0 |
| Receptor-interacting serine/threonine-protein kinase 4 (RIPK4, Homo sapiens, UniProt P57078) | 11 |
| Fibroblast growth factor receptor 3 (FGFR3, Homo sapiens, UniProt P22607, G697C) | 7 |
| Testis-specific serine/threonine-protein kinase 1 (TSSK1B, Homo sapiens, UniProt Q9BXA7) | 70 |
| Tyrosine-protein kinase Mer (MERTK, Homo sapiens, UniProt Q12866) | 88 |
| Serine/threonine-protein kinase 24 (STK24, Homo sapiens, UniProt Q9Y6E0) | 12 |
| Mast/stem cell growth factor receptor Kit, autoinhibited (KIT, Homo sapiens, UniProt P10721) | 34 |
| Proto-oncogene tyrosine-protein kinase receptor Ret (RET, Homo sapiens, UniProt P07949, V804M) | 99 |
| Epidermal growth factor receptor (EGFR, Homo sapiens, UniProt P00533, L858R/T790M) | 99 |

Series 2 — method: competition with immobilised ligand; concentration: 1 µM
SMILES: O=C(N1CCS(=O)(=O)CC1)N1C[C@H](c2ccc(OC(F)(F)F)cc2)C[C@H](c2nc(C3CC3)no2)C1
| target | assay | remaining binding [%] |
| --- | --- | --- |
| Calcium/calmodulin-dependent protein kinase type 1 (CAMK1, Homo sapiens, UniProt Q14012) | cell-free assay | 100 |
| Inhibitor of nuclear factor kappa-B kinase subunit epsilon (IKBKE, Homo sapiens, UniProt Q14164) | cell-free assay | 100 |
| NUAK family SNF1-like kinase 1 (NUAK1, Homo sapiens, UniProt O60285) | cell-free assay | 97 |
| Atypical kinase COQ8B, mitochondrial (COQ8B, Homo sapiens, UniProt Q96D53) | cell-free assay | 73 |
| Protein kinase C iota type (PRKCI, Homo sapiens, UniProt P41743) | cell-free assay | 100 |
| Ribosomal protein S6 kinase alpha-3, C-terminal kinase domain (RPS6KA3, Homo sapiens, UniProt P51812) | cell-free assay | 100 |
| Casein kinase I isoform gamma-1 (CSNK1G1, Homo sapiens, UniProt Q9HCP0) | cell-free assay | 100 |
| MAP/microtubule affinity-regulating kinase 3 (MARK3, Homo sapiens, UniProt P27448) | cell-free assay | 98 |
| Serine/threonine-protein kinase 35 (STK35, Homo sapiens, UniProt Q8TDR2) | cell-free assay | 100 |
| Ribosomal protein S6 kinase alpha-4, C-terminal kinase domain (RPS6KA4, Homo sapiens, UniProt O75676) | cell-free assay | 82 |
| Serine/threonine-protein kinase Nek11 (NEK11, Homo sapiens, UniProt Q8NG66) | cell-free assay | 100 |
| Dual specificity protein kinase CLK2 (CLK2, Homo sapiens, UniProt P49760) | cell-free assay | 100 |
| 5'-AMP-activated protein kinase catalytic subunit alpha-1 (PRKAA1, Homo sapiens, UniProt Q13131) | cell-free assay | 100 |
| Protein kinase C epsilon type (PRKCE, Homo sapiens, UniProt Q02156) | cell-free assay | 97 |
| Serine/threonine-protein kinase Sgk3 (SGK3, Homo sapiens, UniProt Q96BR1) | cell-free assay | 100 |
| Dual specificity mitogen-activated protein kinase kinase 5 (MAP2K5, Homo sapiens, UniProt Q13163) | cell-free assay | 100 |
| Mitogen-activated protein kinase kinase kinase 2 (MAP3K2, Homo sapiens, UniProt Q9Y2U5) | cell-free assay | 100 |
| Cyclin-dependent kinase-like 3 (CDKL3, Homo sapiens, UniProt Q8IVW4) | binding | 93 |
| Phosphatidylinositol 4-phosphate 5-kinase type-1 gamma (PIP5K1C, Homo sapiens, UniProt O60331) | cell-free assay | 100 |
| Receptor-interacting serine/threonine-protein kinase 2 (RIPK2, Homo sapiens, UniProt O43353) | cell-free assay | 90 |
| Activin receptor type-1-like (ACVRL1, Homo sapiens, UniProt P37023) | binding | 100 |
| Mitogen-activated protein kinase kinase kinase 15 (MAP3K15, Homo sapiens, UniProt Q6ZN16) | cell-free assay | 100 |
| Serine/threonine-protein kinase/endoribonuclease IRE1 (ERN1, Homo sapiens, UniProt O75460) | cell-free assay | 96 |
| Serine/threonine-protein kinase PLK1 (PLK1, Homo sapiens, UniProt P53350) | cell-free assay | 91 |

Series 3 — SMILES: CCOc1nc(NC(=O)Cc2cc(OC)ccc2OC)cc(N)c1C#N; effect on: enzyme activity; action: inhibitor; concentration: 0.5 µM; relative to: control
| target | remaining activity [%] |
| --- | --- |
| Discoidin domain-containing receptor 2 (DDR2, Homo sapiens, UniProt Q16832) | 95.4 |
| Mitogen-activated protein kinase 14 (MAPK14, Homo sapiens, UniProt Q16539) | 93.9 |
| Rho-associated protein kinase 1 (ROCK1, Homo sapiens, UniProt Q13464) | 96.4 |
| Serine/threonine-protein kinase MARK2 (MARK2, Homo sapiens, UniProt Q7KZI7) | 99.8 |
| Calcium/calmodulin-dependent protein kinase type IV (CAMK4, Homo sapiens, UniProt Q16566) | 99.1 |
| Calcium/calmodulin-dependent protein kinase type 1B (PNCK, Homo sapiens, UniProt Q6P2M8) | 96.5 |
| Misshapen-like kinase 1 (MINK1, Homo sapiens, UniProt Q8N4C8) | 97.4 |
| MAP/microtubule affinity-regulating kinase 4 (MARK4, Homo sapiens, UniProt Q96L34) | 96.9 |
| Serine/threonine-protein kinase tousled-like 2 (TLK2, Homo sapiens, UniProt Q86UE8) | 100 |
| Serine/threonine-protein kinase DCLK2 (DCLK2, Homo sapiens, UniProt Q8N568) | 98.1 |
| Serine/threonine-protein kinase MRCK beta (CDC42BPB, Homo sapiens, UniProt Q9Y5S2) | 103 |
| Cyclin-dependent kinase 1, with cyclin A (CDK1, Homo sapiens, UniProt P06493) | 92.2 |
| Tyrosine-protein kinase TXK (TXK, Homo sapiens, UniProt P42681) | 93 |
| Serine/threonine-protein kinase Nek3 (NEK3, Homo sapiens, UniProt P51956) | 90 |
| Serine/threonine-protein kinase PLK3 (PLK3, Homo sapiens, UniProt Q9H4B4) | 101 |
| Dual specificity protein kinase CLK3 (CLK3, Homo sapiens, UniProt P49761) | 101 |
| Vascular endothelial growth factor receptor 2 (KDR, Homo sapiens, UniProt P35968) | 102 |
| G protein-coupled receptor kinase 4 (GRK4, Homo sapiens, UniProt P32298) | 99.8 |
| Mitogen-activated protein kinase 1 (MAPK1, Homo sapiens, UniProt P28482) | 92.6 |
| Cyclin-dependent kinase 9, with cyclin K (CDK9, Homo sapiens, UniProt P50750) | 89.2 |
| Dual specificity protein kinase CLK4 (CLK4, Homo sapiens, UniProt Q9HAZ1) | 96.1 |
| Dual specificity mitogen-activated protein kinase kinase 1 (MAP2K1, Homo sapiens, UniProt Q02750) | 87 |
| Myosin-IIIb (MYO3B, Homo sapiens, UniProt Q8WXR4) | 102 |
| RAC-beta serine/threonine-protein kinase (AKT2, Homo sapiens, UniProt P31751) | 103 |
| Serine/threonine-protein kinase PAK 3 (PAK3, Homo sapiens, UniProt O75914) | 104 |

Series 4 — action: inhibitor; concentration: concentration not given; with: without ssDNA
Target: DNA polymerase theta, helicase domain (POLQ, Homo sapiens, UniProt O75417)
Sequence of UniProt O75417 (whole entry, looked up): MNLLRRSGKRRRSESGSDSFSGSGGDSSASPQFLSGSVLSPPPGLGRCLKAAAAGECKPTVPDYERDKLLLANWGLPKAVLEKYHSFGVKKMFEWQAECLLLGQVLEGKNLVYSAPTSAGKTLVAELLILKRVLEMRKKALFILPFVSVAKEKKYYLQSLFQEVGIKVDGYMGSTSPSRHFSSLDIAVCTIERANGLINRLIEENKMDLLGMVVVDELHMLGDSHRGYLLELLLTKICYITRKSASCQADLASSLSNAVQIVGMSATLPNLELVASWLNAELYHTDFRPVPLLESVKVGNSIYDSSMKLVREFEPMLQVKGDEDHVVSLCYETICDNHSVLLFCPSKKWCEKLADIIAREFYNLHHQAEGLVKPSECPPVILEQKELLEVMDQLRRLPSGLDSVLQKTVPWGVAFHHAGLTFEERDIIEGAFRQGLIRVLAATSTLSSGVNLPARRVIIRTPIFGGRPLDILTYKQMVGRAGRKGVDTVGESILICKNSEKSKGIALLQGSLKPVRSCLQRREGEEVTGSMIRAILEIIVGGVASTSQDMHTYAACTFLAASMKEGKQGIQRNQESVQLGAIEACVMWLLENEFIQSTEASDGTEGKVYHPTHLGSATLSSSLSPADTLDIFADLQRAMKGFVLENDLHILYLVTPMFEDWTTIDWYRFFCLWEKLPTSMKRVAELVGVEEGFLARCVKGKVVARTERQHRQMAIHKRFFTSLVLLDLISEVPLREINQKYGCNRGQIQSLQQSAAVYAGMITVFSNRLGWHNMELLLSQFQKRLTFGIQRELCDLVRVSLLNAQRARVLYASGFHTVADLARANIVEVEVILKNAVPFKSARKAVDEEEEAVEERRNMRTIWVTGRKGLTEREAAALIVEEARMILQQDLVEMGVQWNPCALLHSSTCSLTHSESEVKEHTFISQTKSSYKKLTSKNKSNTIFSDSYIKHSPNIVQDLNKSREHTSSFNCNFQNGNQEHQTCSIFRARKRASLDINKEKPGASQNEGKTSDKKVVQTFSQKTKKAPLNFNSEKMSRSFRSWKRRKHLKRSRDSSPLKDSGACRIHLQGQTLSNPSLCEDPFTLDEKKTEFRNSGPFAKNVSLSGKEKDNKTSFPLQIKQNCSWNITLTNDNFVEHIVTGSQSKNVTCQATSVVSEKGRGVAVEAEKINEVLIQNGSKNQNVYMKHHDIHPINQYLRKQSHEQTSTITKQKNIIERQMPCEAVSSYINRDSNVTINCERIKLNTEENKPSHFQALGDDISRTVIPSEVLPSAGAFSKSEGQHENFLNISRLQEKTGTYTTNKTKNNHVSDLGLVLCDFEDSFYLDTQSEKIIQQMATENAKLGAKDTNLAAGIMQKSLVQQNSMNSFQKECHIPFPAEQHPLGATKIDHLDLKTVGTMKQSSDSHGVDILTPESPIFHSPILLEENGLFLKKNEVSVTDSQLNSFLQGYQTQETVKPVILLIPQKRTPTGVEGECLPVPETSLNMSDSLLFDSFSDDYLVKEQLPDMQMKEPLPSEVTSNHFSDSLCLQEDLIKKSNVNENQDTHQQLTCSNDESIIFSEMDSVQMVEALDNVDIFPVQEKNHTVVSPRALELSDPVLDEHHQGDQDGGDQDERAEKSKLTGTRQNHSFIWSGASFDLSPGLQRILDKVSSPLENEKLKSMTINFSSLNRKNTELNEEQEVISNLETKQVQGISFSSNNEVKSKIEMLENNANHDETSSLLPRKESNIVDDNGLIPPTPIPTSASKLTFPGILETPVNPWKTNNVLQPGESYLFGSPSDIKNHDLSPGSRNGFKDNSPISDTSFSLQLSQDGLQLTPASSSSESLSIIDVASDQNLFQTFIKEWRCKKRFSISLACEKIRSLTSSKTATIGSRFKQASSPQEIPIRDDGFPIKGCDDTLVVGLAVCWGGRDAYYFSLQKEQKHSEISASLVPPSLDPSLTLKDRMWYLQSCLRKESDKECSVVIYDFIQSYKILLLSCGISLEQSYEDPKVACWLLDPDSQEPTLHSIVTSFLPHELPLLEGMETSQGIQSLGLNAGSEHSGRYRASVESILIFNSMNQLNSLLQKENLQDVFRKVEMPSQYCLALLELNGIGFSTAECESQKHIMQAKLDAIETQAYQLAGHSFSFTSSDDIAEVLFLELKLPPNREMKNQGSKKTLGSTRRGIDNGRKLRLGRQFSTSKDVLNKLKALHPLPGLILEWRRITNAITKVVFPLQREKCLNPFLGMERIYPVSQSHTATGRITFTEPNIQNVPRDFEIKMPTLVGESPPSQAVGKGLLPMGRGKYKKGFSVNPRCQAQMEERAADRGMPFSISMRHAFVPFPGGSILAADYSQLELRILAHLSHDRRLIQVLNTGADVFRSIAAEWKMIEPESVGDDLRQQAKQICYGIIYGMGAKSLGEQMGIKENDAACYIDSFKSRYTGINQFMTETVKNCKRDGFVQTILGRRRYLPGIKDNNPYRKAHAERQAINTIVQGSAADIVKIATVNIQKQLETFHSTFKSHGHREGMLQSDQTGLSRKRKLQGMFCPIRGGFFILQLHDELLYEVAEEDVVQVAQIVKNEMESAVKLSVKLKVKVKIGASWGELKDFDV
| SMILES | remaining activity |
| --- | --- |
| CSc1ccc(/C=C/c2nc3ccccc3n2S(=O)(=O)c2cccc(Cl)c2)cc1 | 66.3% and 64.8% |
| CC(=O)Oc1cccc2c1C(=O)c1c(OC(C)=O)cc(C(=O)O)cc1C2=O | 57.3% and 60.6% |
| O=C(Nc1noc2ccccc12)c1ccc(F)cc1 | 53.6% and 52% |
| O=C(O)/C(=C/c1c(C(=O)O)[nH]c2cc(Cl)cc(Cl)c12)c1ccccc1 | 38.9% and 39.5% |
| COc1cccc2c1C(=O)c1c(O)c3c(c(O)c1C2=O)C[C@@](O)(C(C)=O)C[C@@H]3O[C@H]1C[C@H](N)[C@H](O)[C@H](C)O1 | 100% and 101% |
| O=C(O)c1cccnc1Nc1cccc(C(F)(F)F)c1 | 37.8% and 36.3% |
| O=C(CSc1ncc(S(=O)(=O)c2ccc(Br)cc2)c(=O)[nH]1)NCc1ccc(Cl)cc1 | 68.8% and 67.6% |
| Cc1ccc(-c2n[nH]c3c2C(c2cccc(O)c2)N(c2ccc(C(=O)O)cc2)C3=O)cc1 (centres unmarked) | 59.7% and 56.6% |
| O=C(Nc1cc2cc[nH]c2cn1)c1ccccc1 | 50.1% and 52.5% |
| COc1cccc2c1C(=O)c1c(O)c3c(c(O)c1C2=O)C[C@@](O)(C(=O)CO)C[C@@H]3O[C@H]1C[C@H](N)[C@@H](O)[C@H](C)O1 | 98.7% and 97% |
| O=C(Nc1cc(-c2ccccc2)sc1C(=O)O)c1cccc(F)c1 | 40.7% and 38.9% |

For quick reference, copied from above (series 4):
| SMILES | remaining activity |
| --- | --- |
| Cc1ccc(-c2n[nH]c3c2C(c2cccc(O)c2)N(c2ccc(C(=O)O)cc2)C3=O)cc1 (centres unmarked) | 59.7% and 56.6% |
| O=C(Nc1cc(-c2ccccc2)sc1C(=O)O)c1cccc(F)c1 | 40.7% and 38.9% |
| O=C(O)c1cccnc1Nc1cccc(C(F)(F)F)c1 | 37.8% and 36.3% |
| O=C(CSc1ncc(S(=O)(=O)c2ccc(Br)cc2)c(=O)[nH]1)NCc1ccc(Cl)cc1 | 68.8% and 67.6% |
| O=C(Nc1cc2cc[nH]c2cn1)c1ccccc1 | 50.1% and 52.5% |
